Measurements gathered from unrelated publications.
Parts stem from different laboratories: compare values within a part only. Positions count from the first letter of the parent shown.
Chain of UniProt P18825 (whole entry, looked up): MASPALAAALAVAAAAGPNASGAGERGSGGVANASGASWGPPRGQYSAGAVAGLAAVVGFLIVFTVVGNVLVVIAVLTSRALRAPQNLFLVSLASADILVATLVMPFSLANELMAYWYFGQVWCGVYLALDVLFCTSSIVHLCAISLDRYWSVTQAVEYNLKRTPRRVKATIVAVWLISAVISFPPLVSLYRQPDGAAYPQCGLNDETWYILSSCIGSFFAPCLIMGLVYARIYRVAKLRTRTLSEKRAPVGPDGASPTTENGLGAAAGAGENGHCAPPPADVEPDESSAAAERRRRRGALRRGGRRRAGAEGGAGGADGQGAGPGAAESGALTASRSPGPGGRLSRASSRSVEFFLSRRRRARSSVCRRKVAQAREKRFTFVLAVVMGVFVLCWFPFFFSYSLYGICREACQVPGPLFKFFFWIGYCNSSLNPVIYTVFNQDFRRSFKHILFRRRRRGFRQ

Study 1 — target: CCNE1, cyclin fold, Cln2 fusion (human); technique: yeast growth competition, sequencing; matrix: yeast; notes: strong parent motif; reference: not given; reading: higher = stronger binding; starting sequence: viral docking peptide; YKVKRRLVFGADD
Substitution | normalised enrichment score
YKVKRRLVFGAYD [D12Y] | 4.94
YKVKKRLVFGADD [R5K] | 2.46
YKVKRRLSFGADD [V8S] | 6.45
YKVDRRLVFGADD [K4D] | 0.577
YKVKRRIVFGADD [L7I] | 2.67
YKVKRRLPFGADD [V8P] | 0.491
YYVKRRLVFGADD [K2Y] | 5.4
YKVVRRLVFGADD [K4V] | 5.48

Study 2 — effect on: peptide-MHC binding; form: peptide; concentration: concentration not given
Target: HLA class I histocompatibility antigen, A alpha chain, allele A*80:01 (Homo sapiens, UniProt P04439)
Molecule | binding
RVGIYFGMK | inactive
EAYCALLCK | inactive
TKAGMAQYL | inactive
SHGIDVTDL | inactive
RSLVCLAPK | inactive
AILAGEHKC | inactive
VMGVIGFGF | inactive
MGFPSLATK | inactive

Other studies, line by line
SMILES | tested on | effect on | concentration | notes | inhibition
Cc1c(N2CCNCC2)nc2ccc(Br)cc2c1C(=O)NC[C@H](CCC(=O)O)c1ccccc1Cl | Alpha-2C adrenergic receptor (ADRA2C, Homo sapiens, UniProt P18825) | ligand displacement | 10 µM | – | 5.7%
CCOc1ccc(Nc2c3c(nc4ccccc24)CCC3)cc1 | Leishmania donovani | parasite growth | 4 µM | intracellular, amastigote | 42%

Repeated from above (study 1):
Substitution | normalised enrichment score
YKVKRRLPFGADD [V8P] | 0.491
YYVKRRLVFGADD [K2Y] | 5.4
YKVVRRLVFGADD [K4V] | 5.48
